Results pooled from the literature.
Lines come from different studies, so protocols differ. ± gives the spread as reported.
IDE: Insulin-degrading enzyme (IDE, Homo sapiens, UniProt P14735)
Chain of UniProt P14735 (whole entry, looked up): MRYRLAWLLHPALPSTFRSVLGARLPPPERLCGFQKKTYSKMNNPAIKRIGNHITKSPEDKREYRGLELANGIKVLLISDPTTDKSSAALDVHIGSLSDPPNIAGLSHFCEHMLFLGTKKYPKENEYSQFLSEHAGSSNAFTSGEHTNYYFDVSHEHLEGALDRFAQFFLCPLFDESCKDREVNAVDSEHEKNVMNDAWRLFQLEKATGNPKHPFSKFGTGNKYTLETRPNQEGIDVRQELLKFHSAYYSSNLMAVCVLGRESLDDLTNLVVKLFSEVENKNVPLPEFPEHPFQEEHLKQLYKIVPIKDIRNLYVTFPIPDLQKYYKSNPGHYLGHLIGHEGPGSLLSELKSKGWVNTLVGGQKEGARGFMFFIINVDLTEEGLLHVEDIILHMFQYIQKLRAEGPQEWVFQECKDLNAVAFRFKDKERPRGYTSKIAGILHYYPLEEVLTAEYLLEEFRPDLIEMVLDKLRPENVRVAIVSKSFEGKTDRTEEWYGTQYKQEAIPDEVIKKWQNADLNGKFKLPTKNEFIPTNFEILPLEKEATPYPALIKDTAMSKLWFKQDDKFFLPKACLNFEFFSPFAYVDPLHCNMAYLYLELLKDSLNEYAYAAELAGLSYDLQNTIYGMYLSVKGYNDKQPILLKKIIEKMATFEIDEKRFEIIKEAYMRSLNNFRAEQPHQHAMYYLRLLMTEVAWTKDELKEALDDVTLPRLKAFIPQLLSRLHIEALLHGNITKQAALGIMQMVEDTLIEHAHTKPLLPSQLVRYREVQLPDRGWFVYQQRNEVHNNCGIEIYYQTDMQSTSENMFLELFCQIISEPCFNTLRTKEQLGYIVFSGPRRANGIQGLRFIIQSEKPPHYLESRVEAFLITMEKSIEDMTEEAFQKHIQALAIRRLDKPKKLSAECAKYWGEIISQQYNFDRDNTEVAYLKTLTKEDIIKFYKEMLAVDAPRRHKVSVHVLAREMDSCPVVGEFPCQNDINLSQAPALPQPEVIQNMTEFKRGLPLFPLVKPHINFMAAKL
Methyl-accepting chemotaxis protein CtaA sensing domain: Methyl-accepting chemotaxis protein CtaA, sensing domain (Pseudomonas fluorescens, UniProt Q3K7T6)
Chain of UniProt P33527 (whole entry, looked up): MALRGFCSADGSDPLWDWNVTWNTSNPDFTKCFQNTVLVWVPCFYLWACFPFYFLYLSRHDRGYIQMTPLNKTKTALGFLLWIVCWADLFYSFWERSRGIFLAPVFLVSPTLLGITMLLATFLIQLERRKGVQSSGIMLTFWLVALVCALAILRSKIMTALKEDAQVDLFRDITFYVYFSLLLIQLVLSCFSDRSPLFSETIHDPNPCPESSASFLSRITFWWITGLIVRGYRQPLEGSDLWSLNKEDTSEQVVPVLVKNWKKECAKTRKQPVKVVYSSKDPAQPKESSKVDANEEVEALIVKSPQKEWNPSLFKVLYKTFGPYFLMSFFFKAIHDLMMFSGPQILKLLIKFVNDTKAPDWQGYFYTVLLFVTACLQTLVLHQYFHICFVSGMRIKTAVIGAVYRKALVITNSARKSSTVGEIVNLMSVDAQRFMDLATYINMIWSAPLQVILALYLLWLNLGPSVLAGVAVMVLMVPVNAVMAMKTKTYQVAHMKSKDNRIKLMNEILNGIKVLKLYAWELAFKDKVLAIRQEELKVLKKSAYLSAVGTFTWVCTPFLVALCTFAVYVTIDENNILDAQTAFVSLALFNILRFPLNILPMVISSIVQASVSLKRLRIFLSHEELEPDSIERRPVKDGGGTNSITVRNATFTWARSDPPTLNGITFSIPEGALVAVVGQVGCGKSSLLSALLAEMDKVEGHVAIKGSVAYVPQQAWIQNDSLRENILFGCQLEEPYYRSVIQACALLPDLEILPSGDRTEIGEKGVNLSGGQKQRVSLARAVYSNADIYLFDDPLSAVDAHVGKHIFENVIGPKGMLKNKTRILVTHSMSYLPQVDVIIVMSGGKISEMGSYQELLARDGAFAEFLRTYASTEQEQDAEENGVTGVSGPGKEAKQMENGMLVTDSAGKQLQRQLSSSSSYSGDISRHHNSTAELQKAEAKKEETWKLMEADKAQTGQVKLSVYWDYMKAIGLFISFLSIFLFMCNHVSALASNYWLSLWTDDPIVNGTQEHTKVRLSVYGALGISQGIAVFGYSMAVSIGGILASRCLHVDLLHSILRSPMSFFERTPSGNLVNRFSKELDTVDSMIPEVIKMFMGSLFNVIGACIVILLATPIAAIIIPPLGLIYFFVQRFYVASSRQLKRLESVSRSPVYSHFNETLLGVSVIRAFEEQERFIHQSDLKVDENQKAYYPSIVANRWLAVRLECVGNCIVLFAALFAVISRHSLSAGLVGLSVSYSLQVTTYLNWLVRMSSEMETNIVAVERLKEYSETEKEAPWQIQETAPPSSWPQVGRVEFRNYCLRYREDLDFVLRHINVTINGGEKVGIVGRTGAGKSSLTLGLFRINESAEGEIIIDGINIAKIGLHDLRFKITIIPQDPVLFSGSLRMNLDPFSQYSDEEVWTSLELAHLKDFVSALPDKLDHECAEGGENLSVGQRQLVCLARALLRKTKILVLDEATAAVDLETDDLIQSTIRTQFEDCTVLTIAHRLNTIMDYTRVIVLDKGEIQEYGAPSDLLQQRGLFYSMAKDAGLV
Chain of UniProt A7T1N0 (whole entry, unmodified, looked up): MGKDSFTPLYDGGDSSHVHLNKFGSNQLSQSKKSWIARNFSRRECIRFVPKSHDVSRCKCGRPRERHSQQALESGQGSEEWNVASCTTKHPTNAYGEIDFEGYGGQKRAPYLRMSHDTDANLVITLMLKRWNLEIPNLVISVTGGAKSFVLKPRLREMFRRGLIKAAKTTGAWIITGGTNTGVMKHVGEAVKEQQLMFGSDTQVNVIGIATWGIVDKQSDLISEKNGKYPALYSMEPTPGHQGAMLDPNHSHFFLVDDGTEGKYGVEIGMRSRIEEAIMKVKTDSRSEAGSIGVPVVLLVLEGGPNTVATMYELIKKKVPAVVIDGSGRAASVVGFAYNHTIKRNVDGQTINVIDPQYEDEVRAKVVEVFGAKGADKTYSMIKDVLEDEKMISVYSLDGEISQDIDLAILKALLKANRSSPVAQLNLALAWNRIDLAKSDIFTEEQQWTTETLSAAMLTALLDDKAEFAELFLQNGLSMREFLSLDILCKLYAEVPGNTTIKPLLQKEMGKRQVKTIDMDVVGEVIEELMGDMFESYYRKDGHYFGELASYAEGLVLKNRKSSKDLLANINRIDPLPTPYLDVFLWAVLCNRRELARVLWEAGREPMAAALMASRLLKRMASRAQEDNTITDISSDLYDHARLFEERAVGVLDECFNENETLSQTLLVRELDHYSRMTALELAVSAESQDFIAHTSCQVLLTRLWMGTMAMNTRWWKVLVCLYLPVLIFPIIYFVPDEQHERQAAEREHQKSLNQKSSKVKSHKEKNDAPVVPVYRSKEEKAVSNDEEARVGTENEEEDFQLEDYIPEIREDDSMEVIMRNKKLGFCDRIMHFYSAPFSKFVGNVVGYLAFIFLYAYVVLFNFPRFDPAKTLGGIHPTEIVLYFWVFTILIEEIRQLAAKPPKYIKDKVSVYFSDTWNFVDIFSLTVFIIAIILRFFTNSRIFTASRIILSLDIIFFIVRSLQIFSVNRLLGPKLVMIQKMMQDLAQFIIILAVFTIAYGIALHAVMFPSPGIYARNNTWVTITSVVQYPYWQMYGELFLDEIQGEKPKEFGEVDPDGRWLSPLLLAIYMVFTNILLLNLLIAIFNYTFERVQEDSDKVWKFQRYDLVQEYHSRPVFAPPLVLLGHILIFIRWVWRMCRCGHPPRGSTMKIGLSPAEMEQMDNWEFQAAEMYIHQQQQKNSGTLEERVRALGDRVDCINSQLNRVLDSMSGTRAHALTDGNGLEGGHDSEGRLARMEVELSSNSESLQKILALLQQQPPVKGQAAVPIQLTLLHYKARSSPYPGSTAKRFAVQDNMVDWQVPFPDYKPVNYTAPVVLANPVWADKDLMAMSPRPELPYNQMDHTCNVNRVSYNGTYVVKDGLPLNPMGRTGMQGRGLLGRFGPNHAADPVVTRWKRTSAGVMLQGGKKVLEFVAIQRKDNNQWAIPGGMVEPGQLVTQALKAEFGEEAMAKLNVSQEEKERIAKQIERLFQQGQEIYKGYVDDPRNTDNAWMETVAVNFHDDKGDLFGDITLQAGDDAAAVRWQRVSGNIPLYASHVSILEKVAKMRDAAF

| tested on | test | system | conditions | quantity | result | SMILES |
| --- | --- | --- | --- | --- | --- | --- |
| IDE | substrate degradation, fluorescence polarisation | – | mean of physiological substrates | Ki | 13 µM | O=S(=O)(Nc1cccn(O)c1=S)c1cccc2nsnc12 |
| HEK293 NF-κB luciferase reporter | NF-κB reporter gene, antagonist | – | 24 h, with: TNFα 5 ng/mL | EC50 | 3.29 µM | COc1cc(O)cc(O)c1C(=O)/C=C/c1ccccc1 |
| Methyl-accepting chemotaxis protein CtaA sensing domain | binding, thermal shift, zero heat capacity | – | – | Kd | 26 ± 7 µM | CC(C)C[C@H](N)C(=O)O |
| HeLa expressing Luc-ODC | Luc-ODC degradation, inhibitor, cycloheximide chase luciferase | – | – | IC50 | 3000 ± 1000 nM | O=C1c2ccccc2-c2nc3nnnn3nc21 |
| Methyl-accepting chemotaxis protein CtaA sensing domain | binding, thermal shift, unfolding equilibrium | – | – | Kd | 5 ± 1 µM | C[C@H](N)C(=O)O |
| HEK293 NF-κB luciferase reporter | NF-κB reporter gene, antagonist | – | 24 h, with: TNFα 5 ng/mL | EC50 | 0.852 µM | O=C(c1ccc(Nc2nccc(-c3cc4ccccc4s3)n2)cc1)N1CCC(N2CCCC2)CC1 |
| Methyl-accepting chemotaxis protein CtaA sensing domain | binding, thermal shift, unfolding equilibrium | – | – | Kd | 6 ± 3 µM | N[C@@H](CO)C(=O)O |
| HEK293 NF-κB luciferase reporter | NF-κB reporter gene, antagonist | – | 24 h, with: TNFα 5 ng/mL | EC50 | < 0.001 µM | [O-][S+](c1ccccc1)c1ccc2nnnn2n1 (centres unmarked) |
| HeLa expressing ODD-Luc | ODD-Luc degradation, inhibitor, cycloheximide chase luciferase | – | – | IC50 | 5000 ± 500 nM | CC[n+]1c(/C=C/N(C)c2ccccc2)n(-c2ccccc2)c2ccc(-c3nc4ccccc4s3)cc21 |
| ABCC1 (Homo sapiens, UniProt P33527) | efflux, inhibitor | SupT1-Vin overexpressing ABCC1 | with: DiOC2(3) 100 nM | IC50 | 1900 ± 700 nM | O=c1[nH]c2ccccc2n1C1CCN(CCCC(c2ccc(F)cc2)c2ccc(F)cc2)CC1 |
| TRPM2 (Nematostella vectensis, UniProt A7T1N0, R329A) | channel activation, agonist, inside-out patch clamp | – | estimate uncertain, with: 125 µM Ca2+ and 2.5 µM PIP2 | EC50 | 121 ± 7 µM | Nc1ncnc2c1ncn2[C@@H]1O[C@H](COP(=O)(O)OP(=O)(O)OC[C@H]2O[C@@H](O)C(O)[C@H]2O)C(O)[C@@H]1OP(=O)(O)O (some centres unmarked) |
| HeLa expressing Luc-ODC | Luc-ODC degradation, inhibitor, cycloheximide chase luciferase | – | – | IC50 | 7200 ± 2300 nM | Cc1ccc(NC2=CC(=O)c3sc(C)nc3C2=O)cc1 |
| HEK293 NF-κB luciferase reporter | NF-κB reporter gene, antagonist | – | 24 h, with: TNFα 5 ng/mL | EC50 | 16.9 µM | Cc1ccc(S(=O)(=O)/C=C/C#N)cc1 |
| HeLa expressing Luc-ODC | Luc-ODC degradation, inhibitor, cycloheximide chase luciferase | – | – | IC50 | 500 ± 100 nM | Cc1ccc(S(=O)(=O)/C=C/C#N)cc1 |
| Methyl-accepting chemotaxis protein CtaA sensing domain | binding, thermal shift, curve fitting | – | – | Kd | 0.5 ± 0.1 µM | CC(C)[C@H](N)C(=O)O |
| HeLa expressing Luc-ODC | Luc-ODC degradation, inhibitor, cycloheximide chase luciferase | – | – | IC50 | 110 ± 10 nM | Cn1nc2c3c(cccc31)C(=O)c1ccccc1-2 |
| IDE | substrate degradation, inhibitor | – | mean of insulin, Aβ, substrate V | Ki | 7 µM | O=S(=O)(Nc1cccn(O)c1=S)c1ccc(Br)s1 |

Repeated from above:
| tested on | test | system | conditions | quantity | result | SMILES |
| --- | --- | --- | --- | --- | --- | --- |
| HeLa expressing Luc-ODC | Luc-ODC degradation, inhibitor, cycloheximide chase luciferase | – | – | IC50 | 500 ± 100 nM | Cc1ccc(S(=O)(=O)/C=C/C#N)cc1 |
